Measurements of several laboratories.
Parts stem from different laboratories: compare values within a part only. Changes are numbered by the printed parent chain.
UniProt O15530, sequence (whole entry, looked up): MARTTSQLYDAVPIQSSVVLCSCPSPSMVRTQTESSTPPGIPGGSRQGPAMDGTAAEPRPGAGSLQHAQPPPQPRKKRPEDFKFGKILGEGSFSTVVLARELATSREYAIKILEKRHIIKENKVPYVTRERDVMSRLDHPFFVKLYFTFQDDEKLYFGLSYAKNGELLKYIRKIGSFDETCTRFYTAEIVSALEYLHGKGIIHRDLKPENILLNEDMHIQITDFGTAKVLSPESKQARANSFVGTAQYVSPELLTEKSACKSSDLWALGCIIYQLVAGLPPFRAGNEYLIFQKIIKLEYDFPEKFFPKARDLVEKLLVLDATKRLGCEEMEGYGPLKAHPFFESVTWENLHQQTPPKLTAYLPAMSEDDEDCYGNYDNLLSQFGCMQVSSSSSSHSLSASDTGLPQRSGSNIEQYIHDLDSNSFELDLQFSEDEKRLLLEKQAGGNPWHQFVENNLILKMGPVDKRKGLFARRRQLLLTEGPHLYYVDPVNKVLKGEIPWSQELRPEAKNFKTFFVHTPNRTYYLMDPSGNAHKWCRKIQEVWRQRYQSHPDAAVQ

Sample 1
Target: Eukaryotic initiation factor 4A-I (EIF4A1, Homo sapiens, UniProt P60842, residues 1-406, full length assumed)
UniProt P60842, sequence (whole entry, looked up): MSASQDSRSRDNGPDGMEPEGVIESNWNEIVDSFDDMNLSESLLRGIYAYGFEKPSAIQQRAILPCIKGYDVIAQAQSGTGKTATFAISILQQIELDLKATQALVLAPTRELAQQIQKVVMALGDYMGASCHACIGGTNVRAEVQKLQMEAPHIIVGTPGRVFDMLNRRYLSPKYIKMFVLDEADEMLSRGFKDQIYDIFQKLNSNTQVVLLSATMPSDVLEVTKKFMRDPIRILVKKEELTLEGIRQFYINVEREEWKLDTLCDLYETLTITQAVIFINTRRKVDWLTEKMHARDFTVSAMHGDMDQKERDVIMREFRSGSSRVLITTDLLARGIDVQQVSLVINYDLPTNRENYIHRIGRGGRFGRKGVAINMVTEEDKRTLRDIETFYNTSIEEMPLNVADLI
Method: RNA Bind-n-Seq
Molecule type: RNA
Matrix: in vitro
Concentration: 90 pmol
Setting: 4-mer, random 30-nt RNA, single round
Together with: 3 µM iPr-DMDA-PatA, 2 mM ADP, 2 mM phosphate
Relative to: input library
Direction: higher = stronger binding
Oligonucleotide | 4-mer enrichment
CCUA | 1.03 fold
UCAG | 1.02 fold
UACC | 1.08 fold
UUGG | 0.805 fold
GUCU | 0.925 fold
CGUC | 0.853 fold
UGUG | 0.832 fold
UAGA | 1.36 fold

Sample 2
Target: ABI1, truncated, D143A, DHFR fusion (Arabidopsis thaliana, UniProt P49597)
Method: DHFR PCA, dose-response
Matrix: yeast
Setting: Hill fit, mean, not affinity
Together with: (+)-ABA, dose series
Direction: lower = more sensitive
Starting sequence: PYL1, truncated, DHFR fusion (Arabidopsis thaliana, UniProt Q8VZS8); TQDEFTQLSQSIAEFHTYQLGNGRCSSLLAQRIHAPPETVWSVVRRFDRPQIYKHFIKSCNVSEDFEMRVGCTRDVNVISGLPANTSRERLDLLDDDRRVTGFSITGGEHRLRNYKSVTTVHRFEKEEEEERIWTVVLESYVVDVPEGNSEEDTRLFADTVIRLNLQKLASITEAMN
Variant | ABA EC50
A30R | 3.76 µM
F66N | 8.31 µM
R123I | 39.3 µM
D75T | 0.416 µM
T17I | 21.5 µM
R132T | 1.02 µM
I12P | 244 µM
G71T | 179 µM

Sample 3
Target: PABPC1L2, full length, GST fusion (mouse, UniProt A0ABA7IW68)
Method: RNAcompete
Molecule type: RNA
Matrix: in vitro
Concentration: 20 nM
Setting: 7-mer, probes averaged, single round
Relative to: mean of 7-mers
Direction: higher = stronger binding
Target sequence (chain): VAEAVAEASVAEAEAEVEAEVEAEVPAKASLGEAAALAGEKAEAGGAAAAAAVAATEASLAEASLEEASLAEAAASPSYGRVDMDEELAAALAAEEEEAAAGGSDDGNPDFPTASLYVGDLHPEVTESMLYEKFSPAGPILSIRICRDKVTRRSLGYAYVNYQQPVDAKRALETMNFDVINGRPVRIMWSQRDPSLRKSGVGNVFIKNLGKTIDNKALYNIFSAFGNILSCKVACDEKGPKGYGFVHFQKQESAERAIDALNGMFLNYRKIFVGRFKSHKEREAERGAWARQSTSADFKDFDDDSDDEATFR
Oligonucleotide | 7-mer Z-score
AUAGGCC | -0.113
CAGUCGG | -0.0899
AGGAGGU | 0.0968
CGAAAGC | -0.186
CGAAUAU | -0.206
CAGUAGU | -0.161
UUAAGAC | -0.00652
GGCGCGC | -0.26

Mixed results
SMILES | target | read-out | mode | concentration | relative to | endpoint | value
Cc1cncc2cccc(S(=O)(=O)N3CCCN(C(=O)CN)C[C@@H]3C)c12 | 3-phosphoinositide-dependent protein kinase 1 (PDPK1, Homo sapiens, UniProt O15530) | enzyme activity | inhibitor | 0.5 µM | control | remaining activity | 97.8%

Excerpt of the above (sample 1):
Oligonucleotide | 4-mer enrichment
GUCU | 0.925 fold
UACC | 1.08 fold
UCAG | 1.02 fold
CGUC | 0.853 fold
